{"data": "Results of several laboratories", "cell line": "Caco-2", "note": "Several values in a cell are separate wells, animals, samples, runs or records. Numbers after ± are the reported error."}
{"SMILES": "CC(C)C[C@H](NC(=O)OCc1ccccc1)C(=O)N[C@H](C=O)C[C@@H]1CCCNC1=O", "test": "cytotoxicity", "quantity": "CC50", "value": "> 100 µM"}
{"SMILES": "CC(C)CC(=O)OC[C@H]1O[C@@](C#N)(c2ccc3c(N)ncnn23)[C@H](O)[C@@H]1O", "test": "bidirectional permeability", "setting": "9 µM, 120 min", "scale": "basolateral to apical", "quantity": "recovery", "value": "99%"}
{"SMILES": "COc1ccc2cc3[n+](cc2c1OC)CCc1cc2c(cc1-3)OCO2.O.[Cl-]", "setting": "100 µg/mL, 2 h", "scale": "reference: B-A over A-B", "quantity": "efflux ratio", "value": "> 2"}
{"SMILES": "COc1nc(NCc2cn(-c3ccc(C(=O)Nc4ccccc4)cc3)nn2)nc(OC)n1", "test": "MTT", "scale": "reference: normal rat colonocytes over Caco-2", "quantity": "selectivity ratio", "value": 0.76}
{"SMILES": "CC[C@H](C)[C@H](NC(=O)[C@@H](N)CC(N)=O)C(=O)N1CCC[C@H]1C(=O)N1CCC[C@H]1C(=O)N[C@@H](CC(C)C)C(=O)N[C@H](C(=O)N[C@@H](CCC(N)=O)C(=O)N[C@H](C(=O)N1CCC[C@H]1C(=O)N[C@H](C(=O)N[C@H](C(=O)N[C@H](C(=O)N1CCC[C@H]1C(=O)N1CCC[C@H]1C(=O)N[C@@H](Cc1ccccc1)C(=O)N[C@@H](CC(C)C)C(=O)N[C@@H](CCC(N)=O)C(=O)N1CCC[C@H]1C(=O)N[C@@H](CCC(=O)O)C(=O)O)C(C)C)C(C)C)C(C)C)[C@@H](C)O)[C@@H](C)O", "setting": "10 µM, 60 min, apical to basal", "quantity": "Papp", "value": "1.22 ×10⁻⁶ cm/s"}
{"SMILES": "CC(C)C[C@H](NC(=O)OCc1ccccc1)C(=O)N[C@@H](CC(C)C)C(=O)N[C@@H](CC1CCNC1=O)C(=O)C(=O)NC1CC1 (stereo partly drawn)", "setting": "5 (unit not given)", "quantity": "CC50", "value": "140 ± 14.4 µM"}
{"SMILES": "CC(C)[C@H]1C(=O)N[C@@H](CCCN=C(N)N)C(=O)NCC(=O)N[C@@H](CC(=O)O)C(=O)N[C@H](Cc2ccccc2)C(=O)N1C", "setting": "200 µM", "quantity": "Papp A to B", "value": "0.096 ×10⁻⁶ cm/s"}
{"SMILES": "C[C@]12CC[C@H]3[C@@H](CCC4=CC(=O)CC[C@@]43C)[C@@H]1CC[C@@H]2O", "setting": "60 min, apical to basolateral", "quantity": "mass balance", "value": "69.5 ± 6.3%"}
{"SMILES": "NC(=O)CC[C@H](NC(=O)[C@@H]1CCCN1C(=O)[C@H](CCC(N)=O)NC(=O)[C@@H]1CCCN1C(=O)[C@@H](N)Cc1ccc(O)cc1)C(=O)O", "test": "CCK-8", "setting": "25 µM", "quantity": "viability", "value": "92.1%"}
{"SMILES": "O=c1cc(-c2ccc(O)cc2)oc2c([C@@H]3O[C@H](CO)[C@@H](O)[C@H](O)[C@H]3O)c(O)cc(O)c12", "test": "CCK-8", "setting": "5 µM, 24 h", "quantity": "viability", "value": "122%"}
{"SMILES": "CC(C)NCC(O)COc1cccc2ccccc12 (stereo not drawn)", "setting": "10 µM, 2 h, pH 7.4", "quantity": "Papp", "value": "> 5 ×10⁻⁶ cm/s"}
{"SMILES": "O=c1c(O[C@@H]2O[C@H](CO)[C@H](O)[C@H](O)[C@H]2O)c(-c2ccc(O)c(O)c2)oc2cc(O)cc(O)c12", "test": "CCK-8", "setting": "10 µM, 24 h", "quantity": "viability", "value": "92.1%"}
{"SMILES": "C[C@@H](NC(=O)[C@@H](C)NC(=O)[C@H](CCCCNC(=O)c1ccc(NC(=O)CCl)cc1)NC(=O)c1ccc(NC(=O)CCl)cc1)C(=O)O", "setting": "10 µM", "scale": "reference: B-A over A-B", "quantity": "efflux ratio", "value": 1.29}
{"SMILES": "C[n+]1ccc(-c2cc[n+](C)cc2)cc1", "setting": "concentration not given", "scale": "reference: untreated control", "quantity": "viability", "value": "41.4% and 39.7% and 49.8% and 37.3% and 52.2%"}
{"SMILES": "C/C=C1/CN2[C@@H]3C[C@@]45c6ccccc6N[C@]4(O3)[C@@H]2C[C@@H]1[C@@]5(COC(C)=O)C(=O)OC", "scale": "reference: B-A over A-B", "quantity": "efflux ratio", "value": 1.3}
{"SMILES": "C[C@@H]1O[C@@H](OC[C@H]2O[C@@H](Oc3c(-c4ccc(O)c(O)c4)oc4cc(O)cc(O)c4c3=O)[C@H](O)[C@@H](O)[C@@H]2O)[C@H](O)[C@H](O)[C@H]1O", "test": "CCK-8", "setting": "2.5 µM, 24 h", "quantity": "viability", "value": "107%"}
{"SMILES": "CC(C)NCC(O)COc1cccc2ccccc12 (stereo not drawn)", "test system": "human plasma", "setting": "pH 7.4, not binding-corrected", "quantity": "apparent permeability A-B", "value": "10.5 ×10⁻⁶ cm/s"}
{"SMILES": "O=C(CCCN1CCC2(CC1)C(=O)NCN2c1ccccc1)N(CC1CCCCC1)c1ccccc1", "test": "Caco-2 permeability", "setting": "time not given, apical to basolateral", "quantity": "recovery", "value": "47.4%"}
